Measurements gathered from unrelated publications.
Each numbered part is a random draw from the data of one study; scales do not carry over between parts. “And” joins repeats or separate records; there may be more than shown.
UniProt P35462, sequence (whole entry, looked up): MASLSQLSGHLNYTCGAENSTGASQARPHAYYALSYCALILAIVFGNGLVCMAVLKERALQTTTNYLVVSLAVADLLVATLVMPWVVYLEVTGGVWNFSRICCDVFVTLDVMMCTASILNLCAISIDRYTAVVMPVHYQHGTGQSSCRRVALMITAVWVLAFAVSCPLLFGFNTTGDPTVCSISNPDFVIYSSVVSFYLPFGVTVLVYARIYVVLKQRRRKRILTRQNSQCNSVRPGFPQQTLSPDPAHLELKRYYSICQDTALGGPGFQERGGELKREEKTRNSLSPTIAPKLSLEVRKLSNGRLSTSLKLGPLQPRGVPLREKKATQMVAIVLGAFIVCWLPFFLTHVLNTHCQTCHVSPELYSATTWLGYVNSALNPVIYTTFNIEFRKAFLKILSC

Set 1 — effect on: enzyme activity; mode: inhibitor; tested at: 0.5 µM; baseline: control
Target: Homeodomain-interacting protein kinase 4 (HIPK4, Homo sapiens, UniProt Q8NE63)
UniProt Q8NE63, sequence (whole entry, looked up): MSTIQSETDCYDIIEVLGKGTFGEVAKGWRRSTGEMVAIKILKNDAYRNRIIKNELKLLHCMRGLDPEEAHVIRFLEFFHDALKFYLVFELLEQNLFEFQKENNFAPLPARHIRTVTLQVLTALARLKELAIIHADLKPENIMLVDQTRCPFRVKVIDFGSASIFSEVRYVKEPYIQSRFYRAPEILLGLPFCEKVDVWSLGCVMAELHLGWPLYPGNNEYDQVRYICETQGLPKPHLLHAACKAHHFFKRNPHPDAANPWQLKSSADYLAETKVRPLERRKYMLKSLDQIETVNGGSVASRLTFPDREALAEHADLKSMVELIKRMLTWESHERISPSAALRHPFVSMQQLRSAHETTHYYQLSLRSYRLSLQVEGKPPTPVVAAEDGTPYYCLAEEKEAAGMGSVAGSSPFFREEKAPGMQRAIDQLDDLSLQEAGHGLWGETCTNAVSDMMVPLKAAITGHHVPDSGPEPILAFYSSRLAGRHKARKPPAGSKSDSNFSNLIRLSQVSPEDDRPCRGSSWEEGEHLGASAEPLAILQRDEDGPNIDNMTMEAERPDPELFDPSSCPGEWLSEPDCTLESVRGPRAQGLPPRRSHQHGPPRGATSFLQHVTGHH
`O=C(NC(NC(=S)Nc1ccc(F)c([N+](=O)[O-])c1)C(Cl)(Cl)Cl)C(c1ccccc1)c1ccccc1` (stereo not drawn) has a remaining activity of 104%.
`N#Cc1c(NC(=O)c2cccc3ccccc23)sc2c1CCCC2` has a remaining activity of 110%.
`O=C(Nc1cccc(Nc2nccc(Nc3cccc(C(F)(F)F)c3)n2)c1)C1CC1` gave a remaining activity of 111%.
For `CCOc1nc(NC(=O)Cc2cc(OC)ccc2OC)cc(N)c1C#N`, the remaining activity was 106%.
The remaining activity of `CCN(CC)C(=O)c1ccc(Nc2nc(OCC3CCCCC3)c3[nH]cnc3n2)cc1` is reported as 96.5%.
The remaining activity of `Cc1cn(-c2cc(NC(=O)c3ccc(C)c(Nc4nccc(-c5cccnc5)n4)c3)cc(C(F)(F)F)c2)cn1` is reported as 105%.
The remaining activity of `O=C1C(Cl)=C(N2C(=O)CCC2=O)C(=O)c2ccccc21` is reported as 98.2%.
For `O=C1c2ccccc2-c2n[nH]c3cccc1c23`, the remaining activity was 107%.
`COc1cc2ncnc(Nc3ccc(O)c(Br)c3)c2cc1OC` has a remaining activity of 107%.
With `COc1cc2ncnc(Nc3cccc(Cl)c3)c2cc1OC` the remaining activity was 64.4%.
`O=c1cc(-c2cccc3c2Sc2ccccc2S3)oc(N2CCOCC2)c1` gave a remaining activity of 100%.
`C[C@@H]1CCN(C(=O)CC#N)C[C@@H]1N(C)c1ncnc2[nH]ccc12` has a remaining activity of 96.2%.
For `Cn1nc2c3c(cccc31)C(=O)c1ccccc1-2`, the remaining activity was 102%.
The remaining activity of `c1ccc(-c2[nH]ncc2-c2ccnc3ccccc23)nc1` is reported as 89.9%.
`COc1cc2c(cc1OC)-c1[nH]nc(Nc3cccc(F)c3)c1C2` gave a remaining activity of 90%.
With `Cc1nc2cc3nc(-c4cccs4)cnc3cc2n1C` the remaining activity was 103%.
`Cc1cc2ncc(-c3ccccc3)nc2cc1C` gave a remaining activity of 120%.
`c1ccc(-c2cnc(Nc3ccc(OCCN4CCCC4)cc3)s2)cc1` gave a remaining activity of 98.5%.
For `CCN(CC)CCNC(=O)c1c(C)[nH]c(/C=C2\C(=O)Nc3ccc(Cl)cc32)c1C`, the remaining activity was 61.7%.
For `CCN(CC)CCNC(=O)c1c(C)[nH]c(/C=C2\C(=O)Nc3ccc(F)cc32)c1C`, the remaining activity was 74.7%.
For `N#C/C(=C\c1ccc(O)c(O)c1)C(=O)NCc1ccccc1`, the remaining activity was 106%.
For `CN(C)C[C@H]1CCn2c(c(C3=C(c4cn(C)c5ccccc45)C(=O)NC3=O)c3ccccc32)C1`, the remaining activity was 95.7%.
`Nc1cccc(-c2cc3c(Oc4cccc(O)c4)ncnc3[nH]2)c1` has a remaining activity of 103%.
For `CN([C@@H](Cc1ccc(OS(=O)(=O)c2cccc3cnccc23)cc1)C(=O)N1CCN(c2ccccc2)CC1)S(=O)(=O)c1cccc2cnccc12`, the remaining activity was 105%.
With `Ic1cccc(CSc2nnc(-c3ccncc3)o2)c1` the remaining activity was 98.8%.

Set 2 — organism: Sarcocystis neurona; effect on: parasite growth; tested at: 10 µM; setting: secondary screen
The inhibition of `CN1CCN(C2=Nc3ccccc3Oc3ccc(Cl)cc32)CC1` is reported as -41.2%.
The inhibition of `Cc1cnc(NC(=O)C2=C(O)c3ccccc3S(=O)(=O)N2C)s1` is reported as -36%.
With `Nc1ccn([C@H]2CC[C@@H](CO)O2)c(=O)n1` the inhibition was -25.5%.
With `Cc1onc(-c2ccccc2)c1C(=O)N[C@@H]1C(=O)N2[C@@H]1SC(C)(C)[C@@H]2C(=O)O` the inhibition was -21.5%.
`CCN(CC)C(=S)SSC(=S)N(CC)CC` has an inhibition of 96.7%.
For `CC(C)(C(=O)c1cccnc1)c1cccnc1`, the inhibition was -43.3%.
For `OC[C@H]1O[C@@H](Oc2cc(O)cc(/C=C/c3ccc(O)cc3)c2)[C@H](O)[C@@H](O)[C@@H]1O`, the inhibition was -20.1%.
The inhibition of `CN(C)CCN(Cc1ccccc1)c1ccccn1` is reported as -31.5%.
For `CC(C)(C)NC(=O)[C@H]1CC[C@H]2[C@@H]3CC[C@H]4NC(=O)C=C[C@]4(C)[C@H]3CC[C@]12C`, the inhibition was -4.4%.
For `NC(=O)N1c2ccccc2CC(=O)c2ccccc21`, the inhibition was 52.9%.
The inhibition of `COc1ccc(CN2CCN(C(c3ccc(F)cc3)c3ccc(F)cc3)CC2)c(OC)c1OC.Cl.Cl` is reported as 52.5%.
`S=c1[nH]cnc2nc[nH]c12` has an inhibition of -11.6%.

Set 3 — method: PRP chromatography estimate; sample: 1,9-decadiene/PBS; pH: 7.4
`CC(C)C[C@@H]1NC(=O)[C@H](CC(C)C)NC(=O)[C@H](CC(C)C)NC(=O)[C@H](CC(C)C)NC(=O)[C@H](C(C)C)NC(=O)[C@H](C)NC(=O)[C@H](C)NC1=O` has a logD of -0.87.
For `CC(C)C[C@@H]1NC(=O)[C@H](C)NC(=O)[C@H](C)NC(=O)[C@H](CC(C)C)NC(=O)[C@H](C(C)C)NC(=O)[C@H](CC(C)C)NC(=O)[C@@H](CC(C)C)NC1=O`, the logD was -0.968.
`CC(C)C[C@@H]1NC(=O)[C@H](CC(C)C)NC(=O)[C@@H](C(C)C)NC(=O)[C@H](CC(C)C)NC(=O)[C@@H](Cc2cscn2)NC(=O)[C@H](C)NC(=O)[C@H](CCC(=O)N2CCCC2)NC1=O` has a logD of -2.14.
The logD of `CC(C)C[C@@H]1NC(=O)[C@H](CC(C)C)NC(=O)[C@@H](CC(C)C)NC(=O)[C@H](CC(C)C)NC(=O)[C@H](C(C)C)NC(=O)[C@H](Cc2cscn2)NC(=O)[C@H](C)NC1=O` is reported as -0.115.
`CC(C)C[C@@H]1NC(=O)[C@H](CC(C)C)NC(=O)[C@@H](CC(C)C)NC(=O)[C@H](C)NC(=O)[C@@H](CCC(=O)N2CCCC2)NC(=O)[C@H](C)NC(=O)[C@H](C)NC1=O` gave a logD of -3.36.
For `CC(C)C[C@@H]1NC(=O)[C@H](CC(C)C)NC(=O)[C@@H](CC(C)C)NC(=O)[C@@H](CC(C)C)NC(=O)[C@H](C)NC(=O)[C@H](CC(C)C)NC(=O)[C@@H](CC(C)C)NC1=O`, the logD was 1.61.
`CC(C)C[C@@H]1NC(=O)[C@H](CC(C)C)NC(=O)[C@@H](CC(C)C)NC(=O)[C@@H](CC(C)C)NC(=O)[C@@H](CCC(=O)N2CCCC2)NC(=O)[C@H](CC(C)C)NC(=O)[C@@H](CC(C)C)NC1=O` gave a logD of 1.13.
For `CC(C)C[C@@H]1NC(=O)[C@H](C)NC(=O)[C@H](CCC(=O)N2CCCC2)NC(=O)[C@H](CC(C)C)NC(=O)[C@@H](CCC(=O)N2CCCC2)NC(=O)[C@H](CC(C)C)NC(=O)[C@@H](CC(C)C)NC1=O`, the logD was -1.85.
With `CC(C)C[C@@H]1NC(=O)[C@H](C(C)C)NC(=O)[C@@H](CC(C)C)NC(=O)[C@@H](CC(C)C)NC(=O)[C@H](C(C)C)NC(=O)[C@H](CC(C)C)NC(=O)[C@@H](CC(C)C)NC1=O` the logD was 2.08.
`CC(C)C[C@@H]1NC(=O)[C@H](C)NC(=O)[C@@H](CC(C)C)NC(=O)[C@@H](CC(C)C)NC(=O)[C@@H](CCC(=O)N2CCCC2)NC(=O)[C@H](CC(C)C)NC(=O)[C@@H](CC(C)C)NC1=O` gave a logD of -0.075.
`CC(C)C[C@@H]1NC(=O)[C@H](C)NC(=O)[C@H](CC(C)C)NC(=O)[C@H](C(C)C)NC(=O)[C@H](CC(C)C)NC(=O)[C@@H](CC(C)C)NC(=O)[C@H](CC(C)C)NC1=O` has a logD of 0.666.
For `CC(C)C[C@@H]1NC(=O)[C@H](C)NC(=O)[C@H](CCC(=O)N2CCCC2)NC(=O)[C@@H](CCC(=O)N2CCCC2)NC(=O)[C@H](CC(C)C)NC(=O)[C@@H](CC(C)C)NC(=O)[C@H](CC(C)C)NC1=O`, the logD was -1.8.

Other studies, line by line
`O=C(NS(=O)(=O)c1ccc(NCC2CCOCC2)c([N+](=O)[O-])c1)c1ccc(N2CCN(Cc3ccc(C(F)(F)F)cc3-c3ccc(Cl)cc3)CC2)cc1Oc1cnc2[nH]ccc2c1` has a Ki of over 10 µM (D(3) dopamine receptor (DRD3, Homo sapiens, UniProt P35462); binding, radioligand binding).
With `CN(C)C(=O)/C(C#N)=C/c1ccc(-c2nc3cnc4[nH]ccc4c3n2C2CCCCC2)o1` the viability was 81.9% and 129% (normal-adjacent epithelium patient-derived organoids sample H; CellTiter-Glo; 0.1 µM; baseline: DMSO).

A few entries again (set 1):
`c1ccc(-c2cnc(Nc3ccc(OCCN4CCCC4)cc3)s2)cc1` gave a remaining activity of 98.5%.
For `CCN(CC)CCNC(=O)c1c(C)[nH]c(/C=C2\C(=O)Nc3ccc(Cl)cc32)c1C`, the remaining activity was 61.7%.
For `CCN(CC)CCNC(=O)c1c(C)[nH]c(/C=C2\C(=O)Nc3ccc(F)cc32)c1C`, the remaining activity was 74.7%.
For `N#C/C(=C\c1ccc(O)c(O)c1)C(=O)NCc1ccccc1`, the remaining activity was 106%.
For `CN(C)C[C@H]1CCn2c(c(C3=C(c4cn(C)c5ccccc45)C(=O)NC3=O)c3ccccc32)C1`, the remaining activity was 95.7%.
`Nc1cccc(-c2cc3c(Oc4cccc(O)c4)ncnc3[nH]2)c1` has a remaining activity of 103%.
